# Measurements gathered from unrelated publications.
# Each line is one published result; not all experiments were run side by side.
# TEAD4: Transcriptional enhancer factor TEF-3 (TEAD4, Homo sapiens, UniProt Q15561)
# Sequence of UniProt Q15561 (whole entry, looked up): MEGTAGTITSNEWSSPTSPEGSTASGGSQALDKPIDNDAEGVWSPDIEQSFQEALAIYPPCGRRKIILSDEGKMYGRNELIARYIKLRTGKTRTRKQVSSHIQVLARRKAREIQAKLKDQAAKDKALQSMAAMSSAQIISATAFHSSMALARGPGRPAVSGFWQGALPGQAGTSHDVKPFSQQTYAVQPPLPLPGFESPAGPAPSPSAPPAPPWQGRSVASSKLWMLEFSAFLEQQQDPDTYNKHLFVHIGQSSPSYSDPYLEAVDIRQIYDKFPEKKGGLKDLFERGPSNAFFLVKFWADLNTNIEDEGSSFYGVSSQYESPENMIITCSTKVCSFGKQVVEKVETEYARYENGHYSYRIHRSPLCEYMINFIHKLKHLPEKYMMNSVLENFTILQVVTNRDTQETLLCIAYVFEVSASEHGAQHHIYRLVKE
# HLA class I histocompatibility antigen, A alpha chain: HLA class I histocompatibility antigen, A alpha chain (Homo sapiens, UniProt P04439)
# FGR: Tyrosine-protein kinase Fgr (FGR, Homo sapiens, UniProt P09769)
# Sequence of UniProt P09769 (whole entry, looked up): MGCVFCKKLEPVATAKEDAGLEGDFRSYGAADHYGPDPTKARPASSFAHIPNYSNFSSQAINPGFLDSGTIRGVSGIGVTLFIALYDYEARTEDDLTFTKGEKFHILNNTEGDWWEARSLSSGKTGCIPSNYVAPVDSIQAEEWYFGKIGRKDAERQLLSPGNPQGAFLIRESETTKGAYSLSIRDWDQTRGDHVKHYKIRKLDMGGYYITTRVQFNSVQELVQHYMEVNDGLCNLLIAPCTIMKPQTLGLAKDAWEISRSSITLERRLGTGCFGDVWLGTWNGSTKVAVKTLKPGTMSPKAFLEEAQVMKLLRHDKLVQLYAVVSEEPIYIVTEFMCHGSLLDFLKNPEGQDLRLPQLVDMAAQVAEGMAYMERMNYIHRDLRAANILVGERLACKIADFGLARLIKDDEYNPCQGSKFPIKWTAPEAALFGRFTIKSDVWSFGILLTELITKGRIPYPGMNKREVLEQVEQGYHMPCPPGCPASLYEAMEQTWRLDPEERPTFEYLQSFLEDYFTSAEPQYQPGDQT
# Sequence of UniProt Q9UJS0 (whole entry, looked up): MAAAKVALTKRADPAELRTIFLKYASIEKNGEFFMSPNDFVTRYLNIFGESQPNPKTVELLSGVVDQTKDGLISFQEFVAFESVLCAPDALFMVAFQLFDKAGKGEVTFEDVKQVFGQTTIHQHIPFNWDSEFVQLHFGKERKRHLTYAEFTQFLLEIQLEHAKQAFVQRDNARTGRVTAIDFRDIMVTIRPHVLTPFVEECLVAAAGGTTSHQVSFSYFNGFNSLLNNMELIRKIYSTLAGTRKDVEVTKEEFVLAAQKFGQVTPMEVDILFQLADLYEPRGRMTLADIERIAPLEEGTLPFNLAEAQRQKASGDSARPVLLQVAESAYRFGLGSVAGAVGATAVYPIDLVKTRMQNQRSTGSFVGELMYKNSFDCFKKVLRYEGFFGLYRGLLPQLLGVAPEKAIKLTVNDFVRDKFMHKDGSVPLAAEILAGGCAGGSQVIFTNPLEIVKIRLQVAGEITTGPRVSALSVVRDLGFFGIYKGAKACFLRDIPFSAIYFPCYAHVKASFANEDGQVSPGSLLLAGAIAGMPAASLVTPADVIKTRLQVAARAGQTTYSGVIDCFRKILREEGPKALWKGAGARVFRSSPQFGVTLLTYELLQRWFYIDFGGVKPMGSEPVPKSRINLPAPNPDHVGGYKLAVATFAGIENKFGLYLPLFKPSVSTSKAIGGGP
# Sequence of UniProt Q6P3R8 (whole entry, looked up): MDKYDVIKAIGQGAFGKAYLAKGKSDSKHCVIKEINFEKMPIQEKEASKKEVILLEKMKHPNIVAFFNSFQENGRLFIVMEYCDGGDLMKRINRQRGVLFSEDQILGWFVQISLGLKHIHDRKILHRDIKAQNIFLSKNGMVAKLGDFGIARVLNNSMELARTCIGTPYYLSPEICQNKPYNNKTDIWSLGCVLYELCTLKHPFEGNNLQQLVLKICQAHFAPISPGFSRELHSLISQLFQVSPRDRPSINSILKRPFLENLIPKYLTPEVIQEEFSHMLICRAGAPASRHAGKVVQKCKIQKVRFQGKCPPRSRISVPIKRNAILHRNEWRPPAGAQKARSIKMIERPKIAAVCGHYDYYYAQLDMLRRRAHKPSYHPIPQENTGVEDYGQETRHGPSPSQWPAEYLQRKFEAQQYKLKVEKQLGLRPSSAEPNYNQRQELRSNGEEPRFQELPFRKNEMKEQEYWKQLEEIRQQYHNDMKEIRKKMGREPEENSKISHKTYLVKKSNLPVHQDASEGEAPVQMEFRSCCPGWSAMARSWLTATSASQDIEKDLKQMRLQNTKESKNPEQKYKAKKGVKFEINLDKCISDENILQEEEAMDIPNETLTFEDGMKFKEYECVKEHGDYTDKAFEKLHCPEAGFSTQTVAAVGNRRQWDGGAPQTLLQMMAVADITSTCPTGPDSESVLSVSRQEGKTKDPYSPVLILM
# Sequence of UniProt P28074 (whole entry, looked up): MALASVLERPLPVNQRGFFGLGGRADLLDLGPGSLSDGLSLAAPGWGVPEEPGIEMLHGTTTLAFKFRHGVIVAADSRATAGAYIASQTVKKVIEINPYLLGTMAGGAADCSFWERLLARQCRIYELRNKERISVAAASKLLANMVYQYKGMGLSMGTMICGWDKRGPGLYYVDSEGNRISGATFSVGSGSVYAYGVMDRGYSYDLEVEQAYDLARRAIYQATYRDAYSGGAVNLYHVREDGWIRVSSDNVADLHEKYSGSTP
# Sequence of UniProt P20618 (whole entry, looked up): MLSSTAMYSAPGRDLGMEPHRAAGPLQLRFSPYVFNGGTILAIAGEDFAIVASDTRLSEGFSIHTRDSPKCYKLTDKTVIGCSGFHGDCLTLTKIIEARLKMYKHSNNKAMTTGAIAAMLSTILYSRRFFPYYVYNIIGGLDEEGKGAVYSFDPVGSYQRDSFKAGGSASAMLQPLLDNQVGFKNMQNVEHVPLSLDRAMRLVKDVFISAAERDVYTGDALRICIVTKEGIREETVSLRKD
# Sequence of UniProt P30939 (whole entry, looked up): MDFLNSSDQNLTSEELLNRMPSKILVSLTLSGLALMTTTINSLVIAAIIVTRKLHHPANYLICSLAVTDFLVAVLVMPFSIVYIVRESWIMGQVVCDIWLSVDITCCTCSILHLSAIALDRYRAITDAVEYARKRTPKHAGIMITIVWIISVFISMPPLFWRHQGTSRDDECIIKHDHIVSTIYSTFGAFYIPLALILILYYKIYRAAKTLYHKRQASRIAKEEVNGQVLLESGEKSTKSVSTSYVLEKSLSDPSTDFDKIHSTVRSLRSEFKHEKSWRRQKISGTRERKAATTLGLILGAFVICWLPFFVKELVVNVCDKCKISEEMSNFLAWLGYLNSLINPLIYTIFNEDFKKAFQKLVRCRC
# Sequence of UniProt P15090 (whole entry, looked up): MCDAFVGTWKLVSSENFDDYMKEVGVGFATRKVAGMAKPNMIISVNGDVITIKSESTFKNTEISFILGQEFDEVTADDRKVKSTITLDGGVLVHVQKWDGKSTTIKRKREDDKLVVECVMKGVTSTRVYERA
# Sequence of UniProt P23975 (whole entry, looked up): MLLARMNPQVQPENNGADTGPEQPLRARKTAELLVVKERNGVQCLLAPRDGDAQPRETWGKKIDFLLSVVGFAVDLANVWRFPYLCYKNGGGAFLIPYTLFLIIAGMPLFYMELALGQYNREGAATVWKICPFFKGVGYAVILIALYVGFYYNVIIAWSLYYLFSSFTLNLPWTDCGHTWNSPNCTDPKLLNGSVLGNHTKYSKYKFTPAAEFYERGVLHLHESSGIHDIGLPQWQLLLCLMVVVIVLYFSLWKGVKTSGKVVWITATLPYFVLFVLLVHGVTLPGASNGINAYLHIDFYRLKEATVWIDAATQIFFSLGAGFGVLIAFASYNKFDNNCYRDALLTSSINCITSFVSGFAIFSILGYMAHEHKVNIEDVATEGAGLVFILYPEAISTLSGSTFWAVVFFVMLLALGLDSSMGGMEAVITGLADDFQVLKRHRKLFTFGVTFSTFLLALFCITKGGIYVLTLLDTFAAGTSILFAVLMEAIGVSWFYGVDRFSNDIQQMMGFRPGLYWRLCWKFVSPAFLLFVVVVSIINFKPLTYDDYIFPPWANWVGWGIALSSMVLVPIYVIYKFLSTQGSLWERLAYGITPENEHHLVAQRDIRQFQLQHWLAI
# Sequence of UniProt P20309 (whole entry, looked up): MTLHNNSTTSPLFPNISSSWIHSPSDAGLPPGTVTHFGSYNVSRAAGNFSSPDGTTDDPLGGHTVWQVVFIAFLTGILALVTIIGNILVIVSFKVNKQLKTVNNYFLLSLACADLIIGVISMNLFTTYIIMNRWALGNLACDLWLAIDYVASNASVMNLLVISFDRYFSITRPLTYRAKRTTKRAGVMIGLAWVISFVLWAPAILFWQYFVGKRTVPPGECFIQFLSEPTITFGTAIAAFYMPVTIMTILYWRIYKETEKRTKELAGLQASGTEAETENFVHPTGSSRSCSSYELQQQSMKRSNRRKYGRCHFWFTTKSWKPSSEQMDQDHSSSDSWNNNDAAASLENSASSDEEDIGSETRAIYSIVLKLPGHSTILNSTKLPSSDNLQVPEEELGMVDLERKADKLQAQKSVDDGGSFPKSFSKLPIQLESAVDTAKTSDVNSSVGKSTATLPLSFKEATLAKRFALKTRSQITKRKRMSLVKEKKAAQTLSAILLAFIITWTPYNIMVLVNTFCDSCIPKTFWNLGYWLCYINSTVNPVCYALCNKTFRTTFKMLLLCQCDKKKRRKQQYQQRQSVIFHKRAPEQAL
Compound,target,test,conditions,measurement,value
COc1ccccc1CCN1CCN(CCc2ccccc2)CC1,"Sodium-dependent noradrenaline transporter (SLC6A2, Homo sapiens, UniProt P23975)","transporter uptake, inhibitor, radiometric",,Ki,2470 nM
CSCC[C@H](NC(=O)[C@H](CCCNC(=N)N)NC(=O)[C@@H](N)C(C)C)C(=O)N[C@@H](CCCNC(=N)N)C(=O)N[C@@H](CC(C)C)C(=O)N[C@@H](CCCNC(=N)N)C(=O)N[C@@H](CCCCN)C(=O)N[C@@H](CC(C)C)C(=O)N[C@@H](CCCNC(=N)N)C(=O)N[C@@H](C)C(=O)N[C@@H](CO)C(=O)N[C@@H](Cc1ccccc1)C(=O)N[C@@H](Cc1ccccc1)C(=O)N[C@@H](CCCCN)C(=O)N1CCC[C@H]1C(=O)N1CCC[C@H]1C(=O)N[C@@H](CCC(=O)O)C(=O)O,TEAD4,"binding, SPR",pH 7.4,Kd,9.44 µM
Cc1ccc2c(c1)C(=O)C1(O)CCN(c3ccccc3)C1=N2 (stereo not drawn),"Myosin-9 (MYH9, Homo sapiens, UniProt P35579)","ATPase activity, inhibitor",,Ki,2900 nM
CC[C@H](C)[C@H](NC(=O)[C@H](CO)NC(=O)[C@H](Cc1ccc(O)cc1)NC(=O)[C@@H](NC(=O)[C@@H](N)CCCCN)C(C)C)C(=O)N1CCC[C@H]1C(=O)N[C@@H](Cc1c[nH]cn1)C(=O)N[C@@H](CCC(N)=O)C(=O)N[C@@H](CCSC)C(=O)O,"HLA class I histocompatibility antigen, A alpha chain",cell-free assay,,IC50,368 nM
COc1cc2c(cc1OC)CN(CCc1ccc(NC(=O)c3cccc4c(=O)c5cccc(OC)c5[nH]c34)cc1)CC2,"Muscarinic acetylcholine receptor M3 (CHRM3, Homo sapiens, UniProt P20309)",cell-free assay,,Ki,278 nM
CC(C)[C@@H](Nc1nc(Cl)nc2c1ncn2[C@H]1[C@H](O)[C@H](O)[C@]2(CN=[N+]=[N-])C[C@H]12)C1CC1,"5-hydroxytryptamine receptor 2B (HTR2B, Homo sapiens, UniProt P41595)","ligand displacement, radioligand",,Ki,380 nM
CCCCNC(=O)N[C@H]1[C@H]([C@H](O)[C@H](O)CO)OC(C(=O)O)=C[C@@H]1O,"Sialidase-1 (NEU1, Homo sapiens, UniProt Q99519)","enzyme activity, inhibitor",,IC50,50000 nM
COC(CNC(=O)c1ccccc1OCC(=O)O)[CH2][Hg][OH] (stereo not drawn),"Electrogenic aspartate/glutamate antiporter SLC25A13, mitochondrial (SLC25A13, Homo sapiens, UniProt Q9UJS0)","binding, ITC",,Kd,< 1 µM
N#C[Se]Cc1cc(=O)oc2cc(O)ccc12,"Carbonic anhydrase 9 (CA9, Homo sapiens, UniProt Q16790)","enzyme activity, inhibitor, stopped-flow",,Ki,36.1 nM
CC[C@H](C)[C@H](NC(=O)[C@H](Cc1c[nH]cn1)NC(=O)CNC(=O)[C@H](Cc1ccccc1)NC(=O)[C@H](CC(C)C)NC(=O)[C@@H](N)CCCNC(=N)N)C(=O)N[C@H](C(=O)N[C@@H](CCC(=O)O)C(=O)N[C@@H](Cc1ccc(O)cc1)C(=O)O)[C@@H](C)O,"HLA class I histocompatibility antigen, A alpha chain",cell-free assay,,IC50,5.1 nM
CC[C@H](C)[C@H](NC(=O)[C@H](CCCNC(=N)N)NC(=O)[C@H](CCCCN)NC(=O)[C@@H]1CCCN1C(=O)[C@@H]1CCCN1C(=O)[C@H](CCCNC(=N)N)NC(=O)[C@@H]1CCCN1C(=O)[C@@H]1CCCN1C(=O)[C@@H]1CCCN1C(=O)[C@@H]1CCCN1C(=O)[C@@H](NC(=O)[C@H](Cc1c[nH]cn1)NC(=O)[C@H](CCC(=O)O)NC(=O)[C@@H]1CCCN1C(=O)[C@@H]1CCCN1C(=O)[C@@H]1CCCN1C(=O)[C@H](CCC(=O)O)NC(=O)[C@H](CC(C)C)NC(=O)[C@H](CC(=O)O)NC(=O)[C@H](CCC(=O)O)NC(=O)[C@H](Cc1c[nH]cn1)NC(=O)[C@H](CO)NC(=O)[C@H](CC(C)C)NC(=O)[C@@H](N)CCC(=O)O)[C@@H](C)CC)C(=O)N[C@@H](CC(C)C)C(=O)N[C@@H](CCC(=O)O)C(=O)N1CCC[C@H]1C(=O)N[C@@H](Cc1c[nH]cn1)C(=O)N[C@@H](CC(N)=O)C(=O)NCC(=O)N[C@@H](CCCCN)C(=O)N[C@@H](CS)C(=O)N[C@@H](CCCNC(=N)N)C(=O)N[C@@H](CCC(=O)O)C(=O)N[C@@H](Cc1ccccc1)C(=O)O,"Protein enabled homolog (ENAH, UniProt Q8N8S7)","binding, fluorescence",,Kd,8.4 µM
CSCC[C@H](NC(=O)[C@@H]1CCCN1C(=O)[C@@H](N)C(C)C)C(=O)N[C@@H](CCCNC(=N)N)C(=O)N[C@@H](CC(C)C)C(=O)N[C@@H](CCCNC(=N)N)C(=O)N[C@@H](CCCCN)C(=O)N[C@@H](CC(C)C)C(=O)N1CCC[C@H]1C(=O)N[C@@H](C)C(=O)N[C@@H](CO)C(=O)N[C@@H](Cc1ccccc1)C(=O)N[C@@H](Cc1ccccc1)C(=O)N[C@@H](CCCCN)C(=O)N1CCC[C@H]1C(=O)N1CCC[C@H]1C(=O)N[C@@H](CCC(=O)O)C(=O)O,TEAD4,"binding, SPR",pH 7.4,Kd,48.3 µM
COc1ccc(C[C@H](NC(=O)[C@H](C)NC(=O)OC(C)(C)C)C(=O)N[C@@H](CC(C)C)C(=O)C(=O)Nc2ccccc2)cc1,"Proteasome component C5/PSMB5, chymotrypsin-like site (Homo sapiens, UniProt P20618+P28074)","enzyme activity in cells, inhibitor",,IC50,1820 nM
N#Cc1ccc(N2CCN(C(=O)COc3ccc4[nH]cc(CCN)c4c3)CC2)cc1,"5-hydroxytryptamine receptor 1F (HTR1F, Homo sapiens, UniProt P30939)","G protein activation, agonist, BRET",,EC50,1570 nM
Cc1nn(C)cc1-c1nc2c(N3CCN(Cc4ccc(Cl)cc4)CC3)c(Cl)cnc2[nH]1,FGR,"binding, competition with immobilised ligand",1 µM,remaining binding,100%
NS(=O)(=O)C(F)(F)C(F)(F)C(F)(F)C(F)(F)C(F)(F)C(F)(F)C(F)(F)C(F)(F)F,"Fatty acid-binding protein, adipocyte (FABP4, Homo sapiens, UniProt P15090)","ligand displacement, fluorescence",,Ki,6950 nM
CC(C)C[C@H](NC(=O)[C@@H](N)CCCCN)C(=O)N[C@@H](Cc1ccccc1)C(=O)N[C@@H](CO)C(=O)N[C@@H](CCCNC(=N)N)C(=O)N1CCC[C@H]1C(=O)N[C@@H](CC(C)C)C(=O)N[C@H](C(=O)N[C@@H](Cc1ccccc1)C(=O)O)[C@@H](C)O,"HLA class I histocompatibility antigen, A alpha chain",cell-free assay,,IC50,21 nM
CCC(C(=O)Nc1cc(NC2COC2)ccc1C)n1cc(Br)cc2nc(SCc3ccc(F)cc3)nc1-2 (stereo not drawn),"Serine protease 1 (PRSS1, Homo sapiens, UniProt P07477)","enzyme activity, inhibitor",,IC50,> 100000 nM
CC[C@H](C)[C@H](NC(=O)[C@H](Cc1c[nH]cn1)NC(=O)[C@H](CCCCN)NC(=O)[C@H](Cc1ccc(O)cc1)NC(=O)[C@@H](NC(=O)[C@@H](N)Cc1c[nH]cn1)C(C)C)C(=O)N[C@@H](CC(C)C)C(=O)N[C@H](C(=O)N[C@@H](Cc1ccccc1)C(=O)O)[C@@H](C)O,"HLA class I histocompatibility antigen, A alpha chain",cell-free assay,,IC50,105 nM
[2H]c1c([2H])c([C@]2([2H])CCCN2C(=O)C(C)(C)Oc2ccc3cn[nH]c3c2)c([2H])c([2H])c1C([2H])([2H])[2H],"Serine/threonine-protein kinase Nek5 (NEK5, Homo sapiens, UniProt Q6P3R8)","binding, competition with immobilised ligand",1 µM,remaining binding,83%
CSCC[C@H](NC(=O)[C@@H](N)CCCCN)C(=O)N[C@@H](Cc1ccccc1)C(=O)N[C@@H](CC(=O)O)C(=O)N[C@@H](CCC(=O)O)C(=O)N[C@@H](Cc1ccccc1)C(=O)N[C@@H](Cc1c[nH]cn1)C(=O)N[C@H](C(=O)N[C@@H](Cc1ccc(O)cc1)C(=O)O)C(C)C,"HLA class I histocompatibility antigen, A alpha chain",cell-free assay,,IC50,37 nM
Nc1ncc(-c2nc(N3CCOCC3)nc(N3CCOCC3)n2)c(C(F)F)n1,"Receptor-type tyrosine-protein kinase FLT3 (FLT3, Homo sapiens, UniProt P36888, D835H)","binding, competition with immobilised ligand",10 µM,remaining binding,55%
CSCC[C@H](NC(=O)[C@H](Cc1c[nH]cn1)NC(=O)[C@H](CC(=O)O)NC(=O)[C@H](Cc1ccc(O)cc1)NC(=O)[C@H](CCC(N)=O)NC(=O)[C@@H](N)CCCCN)C(=O)N[C@@H](Cc1ccc(O)cc1)C(=O)N[C@@H](CCC(N)=O)C(=O)N[C@@H](CC(C)C)C(=O)O,"HLA class I histocompatibility antigen, A alpha chain",cell-free assay,,IC50,990 nM
COc1ncccc1-c1cnn2ccc(N3CCN(C(=O)OC(C)C)CC3)nc12,FGR,"binding, competition with immobilised ligand",1 µM,remaining binding,100%

# Repeated from above:
Compound,target,test,conditions,measurement,value
CC(C)[C@@H](Nc1nc(Cl)nc2c1ncn2[C@H]1[C@H](O)[C@H](O)[C@]2(CN=[N+]=[N-])C[C@H]12)C1CC1,"5-hydroxytryptamine receptor 2B (HTR2B, Homo sapiens, UniProt P41595)","ligand displacement, radioligand",,Ki,380 nM
CSCC[C@H](NC(=O)[C@@H](N)CCCCN)C(=O)N[C@@H](Cc1ccccc1)C(=O)N[C@@H](CC(=O)O)C(=O)N[C@@H](CCC(=O)O)C(=O)N[C@@H](Cc1ccccc1)C(=O)N[C@@H](Cc1c[nH]cn1)C(=O)N[C@H](C(=O)N[C@@H](Cc1ccc(O)cc1)C(=O)O)C(C)C,"HLA class I histocompatibility antigen, A alpha chain",cell-free assay,,IC50,37 nM
CSCC[C@H](NC(=O)[C@H](Cc1c[nH]cn1)NC(=O)[C@H](CC(=O)O)NC(=O)[C@H](Cc1ccc(O)cc1)NC(=O)[C@H](CCC(N)=O)NC(=O)[C@@H](N)CCCCN)C(=O)N[C@@H](Cc1ccc(O)cc1)C(=O)N[C@@H](CCC(N)=O)C(=O)N[C@@H](CC(C)C)C(=O)O,"HLA class I histocompatibility antigen, A alpha chain",cell-free assay,,IC50,990 nM
[2H]c1c([2H])c([C@]2([2H])CCCN2C(=O)C(C)(C)Oc2ccc3cn[nH]c3c2)c([2H])c([2H])c1C([2H])([2H])[2H],"Serine/threonine-protein kinase Nek5 (NEK5, Homo sapiens, UniProt Q6P3R8)","binding, competition with immobilised ligand",1 µM,remaining binding,83%
